Measurements collected from several papers.
Numbered parts are unrelated; each lists some results of a single study. Changes are numbered by the printed parent chain.

Study 1
Target: CCND1, cyclin fold, Cln2 fusion (human)
Method: yeast growth competition, sequencing
Matrix: yeast
Notes: weak parent motif
Baseline: not given
Direction: higher = stronger binding
Starting sequence: GMNC docking peptide (human); KNAKRNLSSEFAN; partner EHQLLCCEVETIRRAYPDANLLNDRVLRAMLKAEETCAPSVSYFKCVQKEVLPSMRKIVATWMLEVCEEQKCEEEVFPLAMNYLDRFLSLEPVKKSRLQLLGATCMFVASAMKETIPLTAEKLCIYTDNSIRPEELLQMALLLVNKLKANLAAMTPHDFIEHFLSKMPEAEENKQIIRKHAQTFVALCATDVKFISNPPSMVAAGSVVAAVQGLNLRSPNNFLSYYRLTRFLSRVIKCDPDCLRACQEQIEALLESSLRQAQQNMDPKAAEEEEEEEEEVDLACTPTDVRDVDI
Variant | normalised enrichment score
KNADRNLSSEFAN [K4D] | 0.057
KNNKRNLSSEFAN [A3N] | 0.369
KNAKRNLRSEFAN [S8R] | 0.207
KNAKRNLSSENAN [F11N] | -0.342
KNAKRNLSSEGAN [F11G] | 0.118
KNAKRGLSSEFAN [N6G] | 0.36
KNAKRNKSSEFAN [L7K] | 0.169
KNWKRNLSSEFAN [A3W] | 0.402
KNAKRNLSSEEAN [F11E] | 0.0788
KNAKRYLSSEFAN [N6Y] | -0.403
KNAKRNLFSEFAN [S8F] | 0.646
KNAKRNLSSIFAN [E10I] | 0.064
KNAKRNLSSMFAN [E10M] | 0.349
KNAKRNLSSEIAN [F11I] | -0.0398
KNAKRNESSEFAN [L7E] | 0.0188
KNAKRNLSREFAN [S9R] | 0.846
KNAKRNLSSVFAN [E10V] | 0.363
KNAKGNLSSEFAN [R5G] | 0.376
KNAKRHLSSEFAN [N6H] | -0.00665
KNALRNLSSEFAN [K4L] | 0.242
KNAKLNLSSEFAN [R5L] | 0.108
KNAKRPLSSEFAN [N6P] | 0.266
KNAWRNLSSEFAN [K4W] | 0.327
KNAKRNLSHEFAN [S9H] | 0.442
KNAKRNLSPEFAN [S9P] | 0.528

Study 2
Target: Prothrombin, mature alpha-thrombin (F2, Homo sapiens, UniProt P00734)
Method: aptamer microarray, sandwich
Form: DNA with 2'F-ANA
Matrix: in vitro
Tested at: 200 nM
Notes: whole 15-mer aptamer, many near background
Added: Cy3 exosite-II aptamer, 400 nM
Direction: higher = stronger binding
Sequence: GGTTGGTGTGGTTGG
Modification | mean fluorescence intensity
2'F-ANA at 7 9 10 12 | 228 a.u.
2'F-ANA at 2 4 7 8 9 12 13 14 | 123 a.u.
2'F-ANA at 2 3 6 9 13 | 568 a.u.
2'F-ANA at 2 4 5 8 9 11 12 13 14 15 | 49.2 a.u.
2'F-ANA at 1 3 5 6 8 13 14 15 | 49.4 a.u.
2'F-ANA at 9 12 15 | 847 a.u.
2'F-ANA at 1 3 7 8 10 11 13 14 | 65.7 a.u.
2'F-ANA at 1 3 4 6 11 15 | 144 a.u.
2'F-ANA at 1 3 8 | 394 a.u.
2'F-ANA at 1 2 3 6 7 10 12 13 | 77.7 a.u.
2'F-ANA at 2 10 11 12 14 15 | 117 a.u.
2'F-ANA at 3 4 5 6 8 9 10 12 | 58.5 a.u.
2'F-ANA at 2 5 6 8 11 | 62.7 a.u.
2'F-ANA at 2 3 4 6 7 12 13 15 | 569 a.u.
2'F-ANA at 1 7 11 12 14 15 | 92.9 a.u.
2'F-ANA at 1 2 3 4 5 6 7 8 9 11 12 14 | 55.6 a.u.
2'F-ANA at 1 2 3 4 5 6 7 11 13 14 15 | 49.6 a.u.
2'F-ANA at 1 2 4 7 8 11 13 15 | 117 a.u.
2'F-ANA at 1 4 6 7 13 14 | 47.8 a.u.
2'F-ANA at 1 2 3 4 5 6 7 8 9 10 | 57.9 a.u.
2'F-ANA at 1 2 4 5 7 8 9 | 63.2 a.u.
2'F-ANA at 2 3 5 9 | 116 a.u.
2'F-ANA at 1 3 4 5 7 8 12 13 14 | 50.1 a.u.
2'F-ANA at 1 3 4 5 6 7 8 11 12 13 14 15 | 49.7 a.u.
2'F-ANA at 1 3 9 10 11 12 15 | 98.3 a.u.

Study 3
Target: CRIPT, C-terminal peptide
Method: DHFR complementation, deep sequencing
Matrix: yeast
Notes: single substitutions, model-inferred values
Baseline: wild type
Direction: higher = weaker binding
Starting sequence: ERBIN, PDZ domain 1 (human); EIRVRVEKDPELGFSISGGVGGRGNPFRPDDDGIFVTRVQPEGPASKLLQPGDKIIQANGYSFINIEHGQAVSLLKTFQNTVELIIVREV; partner TKNYKQTSV
Variant | binding free energy change
G22M | -0.369 kcal/mol
G24C | 0.952 kcal/mol
G52Q | 0.674 kcal/mol
P10V | -0.603 kcal/mol
I85V | -0.0949 kcal/mol
I16R | 0.472 kcal/mol
G60N | 0.0969 kcal/mol
T77R | -0.00491 kcal/mol
G69L | 0.171 kcal/mol
K47Y | 0.208 kcal/mol
V4I | -0.0534 kcal/mol
D31K | 1.14 kcal/mol
P26A | 0.79 kcal/mol
R88A | 0.0327 kcal/mol
N65Q | 0.0466 kcal/mol
R3V | -0.254 kcal/mol
D31Q | 0.716 kcal/mol
S15R | 1.1 kcal/mol
G13K | 0.557 kcal/mol
V39E | 0.859 kcal/mol
R28N | -0.0824 kcal/mol
R5Q | 0.0938 kcal/mol
R5L | 0.0722 kcal/mol
F78V | 0.264 kcal/mol
K54G | 1.28 kcal/mol

Study 4
Target: RNA binding protein fox-1 homolog 2, RRM domain, GST-SBP tag (RBFOX2, Homo sapiens, UniProt O43251-10, residues 100-194)
Method: RNA Bind-n-Seq
Form: RNA
Matrix: in vitro
Tested at: 365 nM
Notes: natural RNA segment, single round, ends assumed
Baseline: no-protein control
Direction: higher = stronger binding
Shared flanks, not repeated: GGGAGUUCUACAGUCCGACGAUC … UGGAAUUCUCGGGUGCCAA
Residues (chain): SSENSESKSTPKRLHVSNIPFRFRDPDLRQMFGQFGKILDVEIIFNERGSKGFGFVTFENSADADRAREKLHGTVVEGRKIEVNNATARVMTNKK
Sequence | RBNS enrichment (R)
AAAUUGGGCUGGAUUGUGCUUUGGUUAAUACAUCUUUCCCUAAAGAAGAUAAACACAAAAUCCAUUCCAGGUAGCUCGGCACCAACUAAGAAAAAAAGCACAAAGUUCUC | 0.241
AACGAGAAGUGCCCUUAAGGAUCACCCCAGCCCCCACAGCCCUGGAAUAAAUUUCGCAAUUAGUUUCAGCUACCUUUGCCUGUGUACGUUCUGGGGCCAAAGCAGAACGG | 0.361
ACAAGUUGUUAAAACAUUUAAUAUUAUAUAGGAUAUUGCUAAUUGUGUAUAUGUUGGUUUAAUUAAUAAUAUGUACUAAGAAUGUCCUUAUUCUUGUGGUUAAAAACCUG | 0.403
CCUUUUAGGGGCUCAUUUAAAAAGAGAGCAAGCUAGAAAGAAAAAGAAAGGACUGUCCGUCUCCCUCUGUCUCCUCUCCCCCAAACCCAGCCUCCACCCGCACAAAGGGG | 0.67
AGAUACAUCCUGAUCUACAGGCGUGAGAGACACAGAGAGAGAUAGACACUGGGCCUUAUAUGCUCUUUUAAAACUUCAAGGUCCACCCCCAGUAAUGCACUUCCUUCAAA | 0.719
CAUCUAAAACUGGCCCAGGACACUUGGUGUAUGCGUGACUUGGCUGUGGCUGUCUUUUUUAAUCCUUGUGUAAAGCAGCAAAAAAGACCUAAAGGGAAUUGUAAUUUGGU | 0.839
AGAAAAUGAAAACACAGAAGCAAAGAGAAAUGUGGCACUUCACAUUUUAAACUACAGAUGGACUUGGUUUGAGGGAGGGGGAAUCACAGAUUUGGUGCUAAGUUAAUUAG | 0.673
UAAGACAGGGCUGGCAGGAGCAGACUGCCUCAGCCCAUGUGCCCUGCCGGCCAGGGCGUGGGCUCCCCUCGGCUGUGGUGCCUCCUCUGGCCCCCCAGGUCCACGUCCUU | 0.262
UUGUAUAAUUACAUUGAUGGCAAUGUAGAGUUUGAAUUUCAGUCUGUAAAUACUUUUUUGGAAAAUAGAAAUUUUUAUUGCUUUAAAGUUUUGGAUAUGGGUGGUUUUCU | 0.954
UUUAAUUCAUCCUCAGUGACUCUGGCAAGGCUGCUUCUCUAUCACUGGCUUUGCACAGAAGUAUGCUCUACUUGCGUUGCUUUAGGGCAGGAUUCUAUUUUGAGGGAAAA | 0.518
GAUACCCAUUUCACCCCAGCGUCUAUAGGAAUCCACACGGGAAUGGUUCAGAGUUAGCAGCUGUUUCUAAGGAAAUGCUGUUCAGAUGCCUCCUAACUUUUAUAGUUAUU | 0.362
GAAACCCUAACGAUGAAGAUGGUCCUGUCCCGGGAGCGGCUGGCUCCACCGAAGUGCUGGGGAGUUGCAGGACUUCAUUCAAAUAGGAAUAUCAGUCCAAGCAAGCUGAU | 0.474

Study 5
Target: ATF5, bZIP domain (human)
Method: DHFR protein complementation
Matrix: yeast
Notes: single substitutions, most at no-binding floor
Baseline: wild-type JUN-FOS pair
Direction: higher = stronger binding
Starting sequence: JUN, bZIP domain (human); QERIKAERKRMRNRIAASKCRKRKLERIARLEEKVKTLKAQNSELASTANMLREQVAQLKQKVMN; partner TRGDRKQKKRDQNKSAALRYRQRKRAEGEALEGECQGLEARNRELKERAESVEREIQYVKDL
Variant | binding fitness [natural log]
T37S | -1.5
S43L | -1.44
A46Y | -1.46
V35C | -1.4
A57G | -1.46
S43K | -0.981
V35S | -1.52
E44T | -1.5
T37A | -1.37
L31I | -1.44
A49E | -1.27
K39V | -1.45
A46N | -1.47
A46P | -1.53
A29P | -1.54
V35K | -1.46

For quick reference, copied from above (study 4):
Sequence | RBNS enrichment (R)
AAAUUGGGCUGGAUUGUGCUUUGGUUAAUACAUCUUUCCCUAAAGAAGAUAAACACAAAAUCCAUUCCAGGUAGCUCGGCACCAACUAAGAAAAAAAGCACAAAGUUCUC | 0.241
AACGAGAAGUGCCCUUAAGGAUCACCCCAGCCCCCACAGCCCUGGAAUAAAUUUCGCAAUUAGUUUCAGCUACCUUUGCCUGUGUACGUUCUGGGGCCAAAGCAGAACGG | 0.361
ACAAGUUGUUAAAACAUUUAAUAUUAUAUAGGAUAUUGCUAAUUGUGUAUAUGUUGGUUUAAUUAAUAAUAUGUACUAAGAAUGUCCUUAUUCUUGUGGUUAAAAACCUG | 0.403
CCUUUUAGGGGCUCAUUUAAAAAGAGAGCAAGCUAGAAAGAAAAAGAAAGGACUGUCCGUCUCCCUCUGUCUCCUCUCCCCCAAACCCAGCCUCCACCCGCACAAAGGGG | 0.67
AGAUACAUCCUGAUCUACAGGCGUGAGAGACACAGAGAGAGAUAGACACUGGGCCUUAUAUGCUCUUUUAAAACUUCAAGGUCCACCCCCAGUAAUGCACUUCCUUCAAA | 0.719
CAUCUAAAACUGGCCCAGGACACUUGGUGUAUGCGUGACUUGGCUGUGGCUGUCUUUUUUAAUCCUUGUGUAAAGCAGCAAAAAAGACCUAAAGGGAAUUGUAAUUUGGU | 0.839
AGAAAAUGAAAACACAGAAGCAAAGAGAAAUGUGGCACUUCACAUUUUAAACUACAGAUGGACUUGGUUUGAGGGAGGGGGAAUCACAGAUUUGGUGCUAAGUUAAUUAG | 0.673
UAAGACAGGGCUGGCAGGAGCAGACUGCCUCAGCCCAUGUGCCCUGCCGGCCAGGGCGUGGGCUCCCCUCGGCUGUGGUGCCUCCUCUGGCCCCCCAGGUCCACGUCCUU | 0.262
